Measured values from different studies.
Parts stem from different laboratories: compare values within a part only. “And” joins repeats or separate records; there may be more than shown.
Sequence of UniProt Q9UJQ4 (whole entry, looked up): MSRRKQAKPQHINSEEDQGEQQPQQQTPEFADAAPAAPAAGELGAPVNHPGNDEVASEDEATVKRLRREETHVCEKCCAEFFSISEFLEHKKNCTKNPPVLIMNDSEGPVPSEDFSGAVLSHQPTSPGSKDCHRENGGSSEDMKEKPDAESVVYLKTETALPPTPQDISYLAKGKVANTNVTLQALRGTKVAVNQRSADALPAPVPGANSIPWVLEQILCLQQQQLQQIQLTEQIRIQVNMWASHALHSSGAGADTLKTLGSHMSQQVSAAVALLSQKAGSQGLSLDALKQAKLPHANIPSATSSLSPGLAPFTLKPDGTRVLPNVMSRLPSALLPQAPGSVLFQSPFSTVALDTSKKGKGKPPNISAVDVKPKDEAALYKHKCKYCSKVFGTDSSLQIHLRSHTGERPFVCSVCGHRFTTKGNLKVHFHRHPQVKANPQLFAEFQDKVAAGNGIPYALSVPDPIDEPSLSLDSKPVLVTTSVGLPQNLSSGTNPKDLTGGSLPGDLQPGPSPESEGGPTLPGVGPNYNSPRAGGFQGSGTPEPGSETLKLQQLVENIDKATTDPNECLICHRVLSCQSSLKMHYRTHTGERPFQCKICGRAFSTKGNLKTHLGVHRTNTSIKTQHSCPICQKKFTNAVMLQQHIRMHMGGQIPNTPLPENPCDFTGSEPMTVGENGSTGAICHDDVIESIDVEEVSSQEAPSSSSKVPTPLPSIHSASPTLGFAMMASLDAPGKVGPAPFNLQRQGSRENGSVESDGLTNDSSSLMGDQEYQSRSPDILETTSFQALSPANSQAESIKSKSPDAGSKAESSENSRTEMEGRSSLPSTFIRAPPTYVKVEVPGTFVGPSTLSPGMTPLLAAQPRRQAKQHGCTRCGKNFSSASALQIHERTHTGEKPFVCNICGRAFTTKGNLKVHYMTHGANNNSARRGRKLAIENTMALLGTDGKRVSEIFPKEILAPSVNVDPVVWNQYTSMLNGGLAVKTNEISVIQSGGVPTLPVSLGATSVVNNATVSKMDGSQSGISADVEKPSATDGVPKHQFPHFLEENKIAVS
Sequence of UniProt Q6P2M8 (whole entry, looked up): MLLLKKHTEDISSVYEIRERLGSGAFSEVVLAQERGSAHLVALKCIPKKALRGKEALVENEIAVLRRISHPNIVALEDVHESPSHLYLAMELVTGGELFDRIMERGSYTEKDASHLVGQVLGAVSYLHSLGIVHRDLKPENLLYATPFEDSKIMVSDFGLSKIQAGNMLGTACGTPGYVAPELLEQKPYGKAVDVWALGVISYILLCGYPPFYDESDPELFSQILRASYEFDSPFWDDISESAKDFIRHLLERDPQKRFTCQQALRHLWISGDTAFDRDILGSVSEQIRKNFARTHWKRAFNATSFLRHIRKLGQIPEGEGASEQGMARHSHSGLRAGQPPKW
Sequence of UniProt P16591 (whole entry, looked up): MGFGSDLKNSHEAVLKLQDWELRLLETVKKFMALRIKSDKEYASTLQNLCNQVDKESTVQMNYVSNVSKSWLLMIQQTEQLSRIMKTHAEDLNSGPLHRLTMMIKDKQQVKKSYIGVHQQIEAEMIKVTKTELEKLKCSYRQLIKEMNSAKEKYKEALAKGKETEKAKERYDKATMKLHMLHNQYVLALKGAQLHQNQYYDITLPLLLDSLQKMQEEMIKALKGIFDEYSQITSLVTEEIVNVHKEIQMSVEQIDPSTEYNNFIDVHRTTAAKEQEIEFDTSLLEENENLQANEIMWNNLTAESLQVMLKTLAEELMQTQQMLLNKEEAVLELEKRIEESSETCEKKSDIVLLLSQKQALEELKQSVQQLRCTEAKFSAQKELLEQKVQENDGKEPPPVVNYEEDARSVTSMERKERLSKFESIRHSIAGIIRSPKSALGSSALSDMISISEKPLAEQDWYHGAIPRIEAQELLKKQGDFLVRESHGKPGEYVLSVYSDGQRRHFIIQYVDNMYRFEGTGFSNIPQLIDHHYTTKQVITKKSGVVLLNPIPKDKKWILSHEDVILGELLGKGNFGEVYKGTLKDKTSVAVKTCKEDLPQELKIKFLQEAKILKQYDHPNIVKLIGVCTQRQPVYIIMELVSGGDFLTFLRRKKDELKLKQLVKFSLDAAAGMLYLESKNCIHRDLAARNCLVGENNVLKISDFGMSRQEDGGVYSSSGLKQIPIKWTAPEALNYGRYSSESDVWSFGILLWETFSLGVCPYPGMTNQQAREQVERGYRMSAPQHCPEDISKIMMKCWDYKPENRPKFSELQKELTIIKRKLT
Sequence of UniProt P49674 (whole entry, looked up): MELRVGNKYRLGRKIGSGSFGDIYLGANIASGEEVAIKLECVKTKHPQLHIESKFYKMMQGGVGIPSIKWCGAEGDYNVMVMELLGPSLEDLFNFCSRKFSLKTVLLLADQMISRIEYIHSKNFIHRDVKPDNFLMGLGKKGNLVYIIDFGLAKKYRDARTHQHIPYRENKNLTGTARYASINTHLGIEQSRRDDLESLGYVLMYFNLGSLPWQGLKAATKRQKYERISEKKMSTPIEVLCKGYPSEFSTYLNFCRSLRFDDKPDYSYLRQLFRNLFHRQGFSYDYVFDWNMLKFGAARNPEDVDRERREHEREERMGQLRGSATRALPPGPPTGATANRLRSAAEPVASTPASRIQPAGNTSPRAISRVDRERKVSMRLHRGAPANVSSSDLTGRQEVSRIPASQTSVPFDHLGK
Sequence of UniProt P00519 (whole entry, unmodified, looked up): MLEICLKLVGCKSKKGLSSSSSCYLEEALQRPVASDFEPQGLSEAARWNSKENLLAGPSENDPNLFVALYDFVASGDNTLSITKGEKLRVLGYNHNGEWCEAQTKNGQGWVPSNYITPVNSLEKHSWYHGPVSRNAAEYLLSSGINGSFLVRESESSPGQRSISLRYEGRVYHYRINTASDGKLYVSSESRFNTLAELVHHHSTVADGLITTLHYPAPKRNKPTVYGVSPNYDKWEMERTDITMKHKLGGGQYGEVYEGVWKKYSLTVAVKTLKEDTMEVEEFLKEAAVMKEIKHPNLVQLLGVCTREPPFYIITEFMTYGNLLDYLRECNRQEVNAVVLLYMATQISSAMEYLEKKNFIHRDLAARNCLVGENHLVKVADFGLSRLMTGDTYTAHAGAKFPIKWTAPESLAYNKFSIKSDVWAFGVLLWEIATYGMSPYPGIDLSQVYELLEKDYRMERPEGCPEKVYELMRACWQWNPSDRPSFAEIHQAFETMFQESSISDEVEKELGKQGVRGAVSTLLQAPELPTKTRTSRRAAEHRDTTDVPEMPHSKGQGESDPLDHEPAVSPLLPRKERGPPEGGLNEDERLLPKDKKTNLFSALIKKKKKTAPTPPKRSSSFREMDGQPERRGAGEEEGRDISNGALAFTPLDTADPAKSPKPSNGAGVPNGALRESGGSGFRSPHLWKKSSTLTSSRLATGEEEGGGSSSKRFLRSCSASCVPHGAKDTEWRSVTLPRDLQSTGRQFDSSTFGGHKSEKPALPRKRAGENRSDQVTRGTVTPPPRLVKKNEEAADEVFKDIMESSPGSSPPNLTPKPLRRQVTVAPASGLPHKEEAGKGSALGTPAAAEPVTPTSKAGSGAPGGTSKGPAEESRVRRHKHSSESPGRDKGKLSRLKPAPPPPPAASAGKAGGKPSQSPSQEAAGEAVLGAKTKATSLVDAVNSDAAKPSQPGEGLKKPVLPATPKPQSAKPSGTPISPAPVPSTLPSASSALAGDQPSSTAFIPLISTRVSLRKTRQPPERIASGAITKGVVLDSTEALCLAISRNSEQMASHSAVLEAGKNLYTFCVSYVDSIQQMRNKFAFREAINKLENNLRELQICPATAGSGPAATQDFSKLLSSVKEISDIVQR
Sequence of UniProt O00506 (whole entry, looked up): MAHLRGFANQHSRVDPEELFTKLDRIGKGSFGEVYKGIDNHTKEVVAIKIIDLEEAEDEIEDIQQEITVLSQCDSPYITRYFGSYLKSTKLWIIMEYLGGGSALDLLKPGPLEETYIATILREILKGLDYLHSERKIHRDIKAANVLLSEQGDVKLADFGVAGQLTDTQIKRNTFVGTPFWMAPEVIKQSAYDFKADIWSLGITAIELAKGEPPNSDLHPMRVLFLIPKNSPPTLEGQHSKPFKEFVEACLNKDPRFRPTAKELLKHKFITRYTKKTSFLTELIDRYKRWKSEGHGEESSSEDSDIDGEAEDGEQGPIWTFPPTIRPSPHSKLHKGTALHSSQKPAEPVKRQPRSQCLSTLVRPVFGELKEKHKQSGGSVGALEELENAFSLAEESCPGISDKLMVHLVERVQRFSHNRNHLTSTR
Sequence of UniProt Q9Y243 (whole entry, looked up): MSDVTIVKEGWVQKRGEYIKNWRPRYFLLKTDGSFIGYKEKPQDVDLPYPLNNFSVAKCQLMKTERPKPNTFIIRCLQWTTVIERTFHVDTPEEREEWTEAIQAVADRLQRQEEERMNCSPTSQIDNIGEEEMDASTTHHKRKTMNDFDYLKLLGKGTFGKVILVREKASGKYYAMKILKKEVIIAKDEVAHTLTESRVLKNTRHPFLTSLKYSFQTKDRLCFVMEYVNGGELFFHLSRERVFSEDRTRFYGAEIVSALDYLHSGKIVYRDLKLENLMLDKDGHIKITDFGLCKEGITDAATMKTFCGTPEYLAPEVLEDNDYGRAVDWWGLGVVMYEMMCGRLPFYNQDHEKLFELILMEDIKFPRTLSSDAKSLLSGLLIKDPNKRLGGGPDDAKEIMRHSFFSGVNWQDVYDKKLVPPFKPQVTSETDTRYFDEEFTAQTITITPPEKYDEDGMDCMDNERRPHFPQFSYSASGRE
Sequence of UniProt P46734 (whole entry, looked up): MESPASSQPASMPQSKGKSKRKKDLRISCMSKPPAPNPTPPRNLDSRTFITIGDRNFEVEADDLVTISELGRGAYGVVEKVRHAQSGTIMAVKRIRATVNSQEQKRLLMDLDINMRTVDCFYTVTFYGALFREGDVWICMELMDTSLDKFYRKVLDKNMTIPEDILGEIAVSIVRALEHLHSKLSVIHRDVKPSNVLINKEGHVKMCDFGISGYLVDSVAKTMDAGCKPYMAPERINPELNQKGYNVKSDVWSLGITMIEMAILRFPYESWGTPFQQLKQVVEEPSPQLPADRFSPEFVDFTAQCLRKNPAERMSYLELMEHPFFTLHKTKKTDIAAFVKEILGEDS

Set 1
Species: mouse
Medium: microsomes or S9
Tested at: 2 µM
Time: 0.5 h
Compound | remaining compound
CCO[C@H]1CN(Cc2cc(=O)c3c(C)ccc(C)c3[nH]2)C[C@@H]1O | 17.6%
CNc1ncc(C(=O)NC[C@H]2CC[C@@H]3C[C@H]2C3(C)C)cn1 | 0.866%
Cc1ccc(O)c(C(=O)c2cnc(/N=C(\N)N(C)C)nc2)c1 | 92%

Set 2
Compound: C[C@H](c1ccnc(Nc2nc3ccc(-c4cc(N(C)C)ncn4)cc3[nH]2)c1)N1CCN(C(=O)CC(F)(F)F)CC1
Method: competition with immobilised ligand
Tested at: 0.1 µM
target | read-out | remaining binding
WEE1 (Homo sapiens, UniProt P30291) | cell-free assay | 96%
AKT3 (Homo sapiens, UniProt Q9Y243) | cell-free assay | 100%
FER (Homo sapiens, UniProt P16591) | cell-free assay | 100%
CLK2 (Homo sapiens, UniProt P49760) | cell-free assay | 65%
PNCK (Homo sapiens, UniProt Q6P2M8) | cell-free assay | 100%
CSNK1E (Homo sapiens, UniProt P49674) | cell-free assay | 100%
PRKACA (Homo sapiens, UniProt P17612) | cell-free assay | 100%
Tyrosine-protein kinase ABL1, phosphorylated (ABL1, Homo sapiens, UniProt P00519, E255K) | binding | 97%
STK25 (Homo sapiens, UniProt O00506) | cell-free assay | 100%
GRK1 (Homo sapiens, UniProt Q15835) | cell-free assay | 90%
MAP2K3 (Homo sapiens, UniProt P46734) | cell-free assay | 97%

Set 3
Structure (SMILES): CC(C)(C(=O)O)[C@H](NC(=O)Cc1cccc(I)c1)c1ccc2oc(=O)[nH]c2c1
Method: Incucyte 3D growth
Tested at: 30 µM
Reading: higher = more growth
cell line | time | spheroid area
A375 | 234 h | 1.17e+08 a.u. and 1.35e+08 a.u. and 1.32e+08 a.u. and 1.57e+08 a.u. and 1.38e+08 a.u.
A375 | 384.52 h | 1.89e+08 a.u. and 1.81e+08 a.u. and 1.63e+08 a.u. and 1.58e+08 a.u. and 1.74e+08 a.u.
KP-4 | 12 h | 1.19e+07 a.u. and 9.43e+06 a.u. and 1.14e+07 a.u. and 1.15e+07 a.u. and 1.1e+07 a.u. and 1.34e+07 a.u.
KP-4 | 0 h | 7e+07 a.u. and 6.73e+07 a.u. and 6.93e+07 a.u. and 6.88e+07 a.u. and 6.63e+07 a.u. and 6.39e+07 a.u.

Set 4
Cell line: mouse MPNST tumor cells
Method: high-content immunofluorescence imaging
Refers to: nuclear SOX9
Tested at: 10 µM
Time: 12 h
Setting: mean of 2 replicates
Relative to: DMSO control
Reading: higher = more nuclear SOX9
Compound | nuclear SOX9 intensity
Oc1cc2c(c(Cl)c1O)CCNCC2c1ccccc1 (centres unmarked) | 99.2 % of DMSO
COc1ccc(-c2nc(-c3ccc(-c4cccc(Cl)c4)o3)[nH]c2-c2ccc(OC)cc2)cc1 | 128 % of DMSO
c1ccc(CNCc2ccc(CN3CCCNCCNCCCNCC3)cc2)nc1 | 93.4 % of DMSO
Cc1c(N(C)CS(=O)(=O)O)c(=O)n(-c2ccccc2)n1C | 93.3 % of DMSO

Further values, each from its own experiment
Compound | target | action | method | cells | tested at | endpoint | value
O=C1CCC(N2Cc3cc(C4CCN(Cc5ccccc5)CC4)ccc3C2=O)C(=O)N1 (centres unmarked) | Sal-like protein 4 (SALL4, Homo sapiens, UniProt Q9UJQ4) | degrader | HiBiT | HEK293 | 0.0001694 µM | remaining protein | 87.2% and 87.4%

Repeated from above (set 2):
target | read-out | remaining binding
PNCK (Homo sapiens, UniProt Q6P2M8) | cell-free assay | 100%
CSNK1E (Homo sapiens, UniProt P49674) | cell-free assay | 100%
